Results pooled from the literature.
Parts stem from different laboratories: compare values within a part only.

Block 1
Target: Histone acetyltransferase KAT6A, winged helix 2, GST fusion (KAT6A, Homo sapiens, UniProt Q92794, residues 85-181)
Technique: protein binding microarray
Form: double-stranded DNA, one strand shown
Sample: in vitro
Concentration: not given
Notes: 8-mer, flanks averaged, mean of 2 arrays, mostly near background
Reference: not given
Direction: higher = stronger binding
Residues (chain): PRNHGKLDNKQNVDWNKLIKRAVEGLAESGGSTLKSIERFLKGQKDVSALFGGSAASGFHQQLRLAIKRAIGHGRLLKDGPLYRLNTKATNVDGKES
Sequence | E-score
TGACGCAA | -0.0536
CGACTGAA | 0.138
AGATTGCC | 0.044
CGCGAGGA | 0.0516
CCGATCAG | 0.0915
ACTTACTA | -0.26
ACTCAATC | -0.0388
TCTGATCA | 0.105
ATTCAAGG | -0.202

Block 2
Target: Ras GTPase-activating protein-binding protein 1, RRM domain (G3BP1, Homo sapiens, UniProt Q13283)
UniProt Q13283, sequence (whole entry, looked up): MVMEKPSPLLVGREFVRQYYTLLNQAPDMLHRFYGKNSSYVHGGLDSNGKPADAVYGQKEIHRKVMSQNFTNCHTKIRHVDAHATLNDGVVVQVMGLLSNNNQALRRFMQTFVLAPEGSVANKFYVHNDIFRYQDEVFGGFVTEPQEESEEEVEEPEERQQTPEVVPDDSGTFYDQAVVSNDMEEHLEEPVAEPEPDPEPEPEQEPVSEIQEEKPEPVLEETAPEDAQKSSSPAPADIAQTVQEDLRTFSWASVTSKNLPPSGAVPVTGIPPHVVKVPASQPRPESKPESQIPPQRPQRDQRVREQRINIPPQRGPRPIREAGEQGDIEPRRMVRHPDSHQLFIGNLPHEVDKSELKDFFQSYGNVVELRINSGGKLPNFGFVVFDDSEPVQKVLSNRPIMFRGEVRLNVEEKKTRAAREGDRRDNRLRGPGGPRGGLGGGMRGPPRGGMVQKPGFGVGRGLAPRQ
Technique: RNA Bind-n-Seq
Form: RNA
Sample: in vitro
Concentration: 1 µM
Notes: whole 134-nt RNA, ends assumed
With: 150 mM KCl
Reference: input library
Direction: higher = stronger binding
Shared flanks, not repeated: GGGAGUUCUACAGUCCGACGAUC … UGGAAUUCUCGGGUGUCAAGG
Sequence | log2 enrichment
CUCAAGUCCUGUGCUACACAUCGUAUGUACCGAAUCGGGGCCGGCCGGCCGGGAAAGUAUUAUGUUACGCCGUUCGGAUCUGCACUUCCA | -0.509
AAGUCCUGUGCUACACAUCGUAUGUACCGAAUCGGAGGAAAAAAAGGAAAAAAAGGAAAGUAUUAUGUUACGCCGUUCGGAUCUGCACUU | -0.0368
UUGCUAAUCUAUAAAUUUUUUUUAUAUGAAAUAGCUCAUAGUCGGAAGCCGGCACCCUCAAAUGAGCCCGAAUAUCUAUGUAAAUGGAUG | -1.32
GCAGGAAGCAAAAACAAAUGGAAAUGCUUCGGAUAGUGGCAGGGGUGGGGGUUGCUAAGGAAAGGGUGGGAUGGGAGUGGGUAAAGAGUU | 1.69
CACAGACAACACGCACCCACACAGACACAGAGGGAAGGGGUUGGGAUGGGGACAGGGUGCACAGCAGGGCGGGGAAAGACCCCAGCCCCU | -0.0394
UCCUCAAGUCCUGUGCUACACAUCGUAUGUACCGAAUCGGAGGGAGGAGGGAAAGUAUUAUGUUACGCCGUUCGGAUCUGCACUUCCAGC | -0.233
CUGUGCUACACAUCGUAUGUACCGAAUCGGUUUUUUUGGGUUUUUUUGGGGUUUUUUUGGGAAAGUAUUAUGUUACGCCGUUCGGAUCUG | -0.266
AAGUCCUGUGCUACACAUCGUAUGUACCGAAUCGGGAGGGUUUUUUUGGGUUUGGGAAAGUAUUAUGUUACGCCGUUCGGAUCUGCACUU | 0.468
AAGUCCUGUGCUACACAUCGUAUGUACCGAAUCGGGAAAGGGUUUGGGAAAAAGGGAAAGUAUUAUGUUACGCCGUUCGGAUCUGCACUU | 0.418
CAAGUCCUGUGCUACACAUCGUAUGUACCGAAUCGGGAAAAAGGGUUUGGGAGGGAAAGUAUUAUGUUACGCCGUUCGGAUCUGCACUUC | 0.871

Block 3
Target: Interferon regulatory factor 3, full length, phosphomimetic (IRF3, Homo sapiens, UniProt Q14653, residues 1-427, S386D/S396D/S398D/S402D/T404D/S405D)
Technique: protein-binding microarray
Form: double-stranded DNA, one strand shown
Sample: in vitro
Concentration: 2540 nM top
Notes: 60-bp whole probe
With: salmon DNA 0.4 mg/ml
Reference: random background probes
Direction: higher = stronger binding
Shared flanks, not repeated: GCCTAGCAC … GTCTTGATTCGCTTGACGCTGCTG
Residues (chain): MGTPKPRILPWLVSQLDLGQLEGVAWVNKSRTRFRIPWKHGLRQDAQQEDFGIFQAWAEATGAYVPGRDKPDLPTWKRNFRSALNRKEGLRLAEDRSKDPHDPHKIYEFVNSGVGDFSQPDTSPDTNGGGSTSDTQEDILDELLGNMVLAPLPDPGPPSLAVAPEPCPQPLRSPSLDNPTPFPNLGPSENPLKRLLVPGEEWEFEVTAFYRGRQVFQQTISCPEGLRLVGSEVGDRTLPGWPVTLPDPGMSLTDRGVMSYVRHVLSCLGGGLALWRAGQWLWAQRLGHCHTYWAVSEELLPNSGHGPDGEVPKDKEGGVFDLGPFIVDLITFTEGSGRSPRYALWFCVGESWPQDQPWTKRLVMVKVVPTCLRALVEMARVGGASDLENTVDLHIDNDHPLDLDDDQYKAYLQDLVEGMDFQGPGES
Sequence | fitted relative affinity
TCATTTTTCCCTCTGGAAAAGTGCTAG | 2.95 z-score
GACGGACTGTACTTTCGGGACGTGCTA | 0.731 z-score
GACGGTTTCTTTCTCCTGACGTGCTAG | 4.9 z-score
TTAGGTTTCCACACTGGGTTAGTGCTA | 4 z-score
TCTCCTCTAGGTTCTCTGAGAGTGCTA | 0.369 z-score
GACGGTATCCTTTTCGTGACGTGCTAG | 7.84 z-score
TGTCCTTTTCTTTACTGATGGTGCTAG | 5.75 z-score
TTAGTTCTCCTACTGCTTTAGTGCTAG | 1.43 z-score

Other studies, line by line
Substance | target | assay | test system | conditions | how to read | quantity | result
PhoQ, residues 284 288 289 292 302 303 ASSHFY | PhoP, residues 12 14 15 18 19 SFCSL (Escherichia coli, UniProt P23836) | Sort-seq, item: YFP reporter | E. coli | PhoQ-PhoP variant library, with: 10 µM Mg2+ | reference: high Mg2+ state, higher = stronger signaling | fold induction | 15.8

Repeated from above (block 3):
Sequence | fitted relative affinity
TGTCCTTTTCTTTACTGATGGTGCTAG | 5.75 z-score
